Measured values of several laboratories.
Each line is one published result; not all experiments were run side by side. In brackets after ≈: the same amount, converted by molar mass.

Chains of the proteins cited; added tags and fusions are not shown.
UniProt P33981, whole entry: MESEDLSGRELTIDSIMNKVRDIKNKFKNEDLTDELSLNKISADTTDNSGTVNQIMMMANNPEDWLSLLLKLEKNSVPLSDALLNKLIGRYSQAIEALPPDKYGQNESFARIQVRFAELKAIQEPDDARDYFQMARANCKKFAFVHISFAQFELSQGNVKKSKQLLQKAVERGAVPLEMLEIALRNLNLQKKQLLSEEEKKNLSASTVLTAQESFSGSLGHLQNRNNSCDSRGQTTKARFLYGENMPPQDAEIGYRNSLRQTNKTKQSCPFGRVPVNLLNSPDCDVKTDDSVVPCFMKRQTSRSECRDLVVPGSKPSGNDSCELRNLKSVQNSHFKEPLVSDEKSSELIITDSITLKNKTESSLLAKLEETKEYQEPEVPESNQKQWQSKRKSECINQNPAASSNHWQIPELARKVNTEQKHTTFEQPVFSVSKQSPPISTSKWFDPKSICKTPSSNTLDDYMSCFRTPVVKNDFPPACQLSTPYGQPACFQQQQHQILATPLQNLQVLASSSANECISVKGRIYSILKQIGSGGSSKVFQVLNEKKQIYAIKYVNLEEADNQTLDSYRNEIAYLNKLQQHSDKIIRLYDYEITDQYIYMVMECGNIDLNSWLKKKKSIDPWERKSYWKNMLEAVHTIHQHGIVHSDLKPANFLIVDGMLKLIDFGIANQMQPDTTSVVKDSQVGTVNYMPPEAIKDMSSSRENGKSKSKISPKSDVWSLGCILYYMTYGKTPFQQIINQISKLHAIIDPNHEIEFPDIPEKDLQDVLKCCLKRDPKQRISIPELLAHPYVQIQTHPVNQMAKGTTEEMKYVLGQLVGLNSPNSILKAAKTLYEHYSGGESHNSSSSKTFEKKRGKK
UniProt Q96NX5, whole entry: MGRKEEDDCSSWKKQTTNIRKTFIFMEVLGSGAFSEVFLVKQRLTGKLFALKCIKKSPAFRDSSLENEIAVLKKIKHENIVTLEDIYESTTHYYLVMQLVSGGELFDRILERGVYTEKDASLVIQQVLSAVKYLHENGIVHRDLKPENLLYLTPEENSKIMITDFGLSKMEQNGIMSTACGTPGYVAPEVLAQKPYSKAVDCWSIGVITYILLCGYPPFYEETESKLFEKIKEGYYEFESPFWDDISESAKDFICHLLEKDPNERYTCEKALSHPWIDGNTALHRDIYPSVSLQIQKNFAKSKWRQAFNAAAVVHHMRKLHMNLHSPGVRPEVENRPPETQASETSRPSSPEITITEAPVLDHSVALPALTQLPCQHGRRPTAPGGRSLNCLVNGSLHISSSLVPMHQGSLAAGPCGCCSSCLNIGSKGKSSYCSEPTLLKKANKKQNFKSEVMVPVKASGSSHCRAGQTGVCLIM

Structure (SMILES) | tested on | assay | system | conditions | scale | measurement | result
COC(=O)COc1ccc2nc3ccc(=O)cc-3oc2c1 | Mycobacterium tuberculosis | – | mc2 6206 PA-824-resistant ddn mutant | 7 days | – | MIC90 | 74 µM (≈ 21.1 µg/mL)
CCc1nc(N)nc(N)c1C#CCc1cc(OC)cc(-c2ccc(C(=O)O)cc2)c1 | Mycobacterium tuberculosis | – | PAS-resistant folC I43T | – | – | MIC | 1 µg/mL
CC#C/C(=N\OC[C@H]1COCCN1)c1ccc2ncnc(Nc3ccc(OCc4cccc(F)c4)c(Cl)c3)c2c1 | Dual specificity protein kinase TTK (TTK, Homo sapiens, UniProt P33981) | kinase activity | – | 10 µM | – | inhibition | -4.1%
CS(=O)(=O)NC(=O)NCc1cn(-c2ccc(Cl)cc2)nc1-c1ccncc1 | Mycobacterium tuberculosis | OD600 | QcrB A317T mutant | – | – | MIC | 0.5 µM
COCCOc1ccc2nc3ccc(=O)cc-3oc2c1 | Mycobacterium tuberculosis | – | mc2 6206 PA-824-resistant ddn mutant | 7 days | – | MIC90 | 46 µM (≈ 12.5 µg/mL)
CC1(C)CCC(Cc2cc(O)c(-c3ccccc3)c(=O)[nH]2)CC1 | Mycobacterium tuberculosis | – | H37Rv | 10 × MIC | – | resistance frequency | 1e-08 per cell
CCc1nc(N)nc(N)c1C#C[C@@H](C)c1cc(OC)cc(-c2ccc(C(=O)O)cc2)c1 | Mycobacterium tuberculosis | – | INCA-resistant strains | – | – | MIC | 1 µg/mL
CS(=O)(=O)NC(=O)NCc1cc(-c2ccc(Br)cc2)oc1-c1ccncc1 | Mycobacterium tuberculosis | – | EthA C253R mutant | – | – | MIC | 0.5 µM
CCN1CCN(Cc2ccc(NC(=O)c3ccc(C)c(/C=C/c4cnc5[nH]ccc5c4OC)c3)cc2C(F)(F)F)CC1 | Calcium/calmodulin-dependent protein kinase type 1G (CAMK1G, Homo sapiens, UniProt Q96NX5) | inhibitor, cell-based kinome screen | human cells | 5 µM | baseline: vehicle | log2 fold change | 0.21
CS(=O)(=O)NC(=O)CCc1cn(-c2ccc(Br)cc2)nc1-c1ccc(Cl)cc1 | Mycobacterium tuberculosis | – | MmpL3 G253E mutant | – | – | MIC | 4 µM
COCCOc1ccc2nc3ccc(=O)c(Cl)c-3oc2c1 | Mycobacterium tuberculosis | – | mc2 6206 clofazimine-resistant fbiC mutant | 7 days | – | MIC90 | 20 µM (≈ 6.11 µg/mL)

A few entries again:
Structure (SMILES) | tested on | assay | system | conditions | scale | measurement | result
CS(=O)(=O)NC(=O)NCc1cc(-c2ccc(Br)cc2)oc1-c1ccncc1 | Mycobacterium tuberculosis | – | EthA C253R mutant | – | – | MIC | 0.5 µM
